Results from different studies.
Compare with care: the assays were run in different laboratories. Several values in a cell are separate wells, animals, samples, runs or records. ± marks the error that the study gave.
HLA class I histocompatibility antigen, A alpha chain allele A*01:01: HLA class I histocompatibility antigen, A alpha chain, allele A*01:01 (Homo sapiens, UniProt P04439)
Fibroin-modulator-binding protein-1: Fibroin-modulator-binding protein-1 99-193 (Bombyx mori, UniProt Q5FBS0)
Sequence of UniProt Q64663 (whole entry, unmodified, looked up): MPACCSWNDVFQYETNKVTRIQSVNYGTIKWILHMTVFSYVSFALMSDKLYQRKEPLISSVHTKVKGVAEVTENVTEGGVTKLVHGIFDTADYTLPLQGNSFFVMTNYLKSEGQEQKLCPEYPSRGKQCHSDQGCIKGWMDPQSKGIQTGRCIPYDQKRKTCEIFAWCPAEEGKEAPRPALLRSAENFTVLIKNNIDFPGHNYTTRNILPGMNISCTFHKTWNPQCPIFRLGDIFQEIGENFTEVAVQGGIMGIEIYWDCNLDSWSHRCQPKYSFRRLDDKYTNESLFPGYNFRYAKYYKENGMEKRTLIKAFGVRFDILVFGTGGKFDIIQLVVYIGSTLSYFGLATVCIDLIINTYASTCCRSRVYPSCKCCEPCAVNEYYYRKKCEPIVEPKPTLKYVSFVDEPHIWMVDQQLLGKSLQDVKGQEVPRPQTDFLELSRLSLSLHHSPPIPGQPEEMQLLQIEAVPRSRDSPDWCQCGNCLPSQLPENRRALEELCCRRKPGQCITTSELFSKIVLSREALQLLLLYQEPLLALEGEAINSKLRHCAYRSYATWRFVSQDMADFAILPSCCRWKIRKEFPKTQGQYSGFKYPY

EKPIDSETKM
normalised SPR binding response (human SCRIB PDZ3-4 tandem (MBP fusion); surface plasmon resonance; peptide; concentration not given; higher = stronger binding): 0 normalised RU

Peginesatide
phosphorylation level (UT7/EPO; tyrosine phosphorylation, LC-MS/MS phosphoproteomics, GluC, item: ALDOA tyrosine 363; 10 nM, 15 min, added: 10 U/mL EPO; baseline: vehicle): 3.3 fold

GLLQWITQV
reporter activation (Jurkat T cells expressing 1G4 TCR; NFAT-eGFP reporter, flow cytometry; peptide; concentration not given, HLA-A*02:01 NY-ESO system): 82.6%

GGGAGAACUUCGACCAGAAGAAUGCUAAAAUCCAGCGGCGCACGCGAUGACGGGAGAAACUAUGUGCGCAUACAUGGAUCCUC (ssRNA; 2'-fluoro pyrimidines)
relative binding (integrin alphaV/beta3 31-992/27-718 (Homo sapiens); SPR; RNA; added: MnCl2 1 mM; higher = more binding): 73 RU

CLTSTVQLIMQ
binding score (HLA class I histocompatibility antigen, A alpha chain allele A*01:01; conformational ELISA; peptide; concentration not given; baseline: positive control peptide, direction not given): 4.2%

human GAPDH
co-IP enrichment (co-immunoprecipitation; human RBC membrane; DSSO crosslinker, unit not given, added: Band 3 peptide 1-56 bait; baseline: negative control): 1270

GLFQWIAQA
reporter activation (Jurkat T cells expressing 1G4 TCR; NFAT-eGFP reporter, fluorescence microscopy; peptide; concentration not given, HLA-A*02:01 NY-ESO system): 0.00922%

colistin
MIC (Enterobacter cloacae; broth microdilution; clinical isolate RKI-No_136/15): ≤ 0.5 µg/mL

MPFGSLLDY
binding score (HLA class I histocompatibility antigen, A alpha chain allele A*01:01; conformational ELISA; peptide; concentration not given; baseline: positive control peptide, direction not given): 1%

ALFEWIPRV
reporter activation (Jurkat T cells expressing 1G4 TCR; NFAT-eGFP reporter, flow cytometry; peptide; concentration not given, HLA-A*02:01 NY-ESO system): 0.11%

ACEEQNPWARYLEWLFPTETLLLEL
contrast index (ex vivo fluorescence imaging; peptide, BALB/c mice, 4T1 tumour-bearing; intravenous, 5 nmol, 4 h post-injection, background-corrected mean fluorescence; baseline: tumour over muscle): 5.5 ± 0.8

UBE2I
co-IP enrichment (co-immunoprecipitation; human RBC membrane; DMTMM crosslinker, unit not given, added: Band 3 peptide 1-56 bait; baseline: negative control): 0

SVWLRKETRV
binding intensity (human MAGI1-3/6 PDZ construct (MBP fusion); automated holdup; peptide, purified PDZ protein; concentration not given, unit not given; baseline: biotin control resin, higher = stronger binding): 0.355

human LDL receptor
co-IP enrichment (co-immunoprecipitation; human RBC cytosol; DSSO crosslinker, unit not given, added: Band 3 peptide 1-56 bait; baseline: negative control): 0

AGAGAGAGAGAG (dsDNA)
Kd (Fibroin-modulator-binding protein-1; ITC; double-stranded DNA, one strand shown): 5.31 ± 0.475 µM

VMRLQSETSV
binding intensity (human MAGI1-3/6 PDZ construct (MBP fusion); automated holdup; peptide, crude extract; concentration not given, corrected by standard peak, unit not given; baseline: biotin control resin, higher = stronger binding): 0.197

AAAGAAAGAAAG (dsDNA)
Kd (Fibroin-modulator-binding protein-1; ITC; double-stranded DNA, one strand shown): 6.1 ± 0.518 µM

human alpha-1-acid glycoprotein 1
co-IP enrichment (co-immunoprecipitation; human RBC membrane; no crosslinker, unit not given, added: Band 3 peptide 1-56 bait; baseline: negative control): 0

GSGAGKETEC
normalised SPR binding response (human MAGI1-3/6 PDZ construct (MBP fusion); surface plasmon resonance; peptide; concentration not given; higher = stronger binding): 0 normalised RU

epoetin alfa
mRNA level (UT7/EPO; RT-qPCR, item: CCL2; concentration not given, 90 min, normalized to HPRT1; baseline: vehicle): 10 fold

GLMQWVSQV
reporter activation (Jurkat T cells expressing 1G4 TCR; NFAT-eGFP reporter, fluorescence microscopy; peptide; concentration not given, HLA-A*02:01 NY-ESO system): 16%

GSGAGKETYY
binding intensity (human SCRIB PDZ3-4 tandem (MBP fusion); automated holdup; peptide, purified PDZ protein; concentration not given, unit not given; baseline: biotin control resin, higher = stronger binding): -0.00453

DLLQWQTKL
reporter activation (Jurkat T cells expressing 1G4 TCR; NFAT-eGFP reporter, fluorescence microscopy; peptide; concentration not given, HLA-A*02:01 NY-ESO system): 0.0447%

GGWVEKETYY
binding intensity (human MAGI1-2/6 PDZ construct (MBP fusion); automated holdup; peptide, crude extract; concentration not given, uncorrected, unit not given; baseline: biotin control resin, higher = stronger binding): 0.022

cotadutide
plasma insulin (ob/ob mouse, AMLN diet NASH model; dose not given, terminal, non-fasted): 6.2 ± 0.7 pg/mL

GSGAGRETEV
normalised SPR binding response (human MAGI1-2/6 PDZ construct (MBP fusion); surface plasmon resonance; peptide; concentration not given; higher = stronger binding): 14.1 normalised RU

ALTQWVTEN
reporter activation (Jurkat T cells expressing 1G4 TCR; NFAT-eGFP reporter, flow cytometry; peptide; concentration not given, HLA-A*02:01 NY-ESO system): 0.14%

BzATP
normalized current (P2X purinoceptor 7 (P2rx7, Rattus norvegicus, UniProt Q64663); ion current, agonist, two-electrode voltage clamp; Xenopus laevis oocytes; 1.23 µM; baseline: highest concentration response): 0.47 and 0.45 and 0.58

Some of these lines once more:
GGWVEKETYY
binding intensity (human MAGI1-2/6 PDZ construct (MBP fusion); automated holdup; peptide, crude extract; concentration not given, uncorrected, unit not given; baseline: biotin control resin, higher = stronger binding): 0.022

cotadutide
plasma insulin (ob/ob mouse, AMLN diet NASH model; dose not given, terminal, non-fasted): 6.2 ± 0.7 pg/mL

GSGAGRETEV
normalised SPR binding response (human MAGI1-2/6 PDZ construct (MBP fusion); surface plasmon resonance; peptide; concentration not given; higher = stronger binding): 14.1 normalised RU

ALTQWVTEN
reporter activation (Jurkat T cells expressing 1G4 TCR; NFAT-eGFP reporter, flow cytometry; peptide; concentration not given, HLA-A*02:01 NY-ESO system): 0.14%
